Results pooled from the literature.
Lines come from different studies, so protocols differ. Values joined by “and” are separate records of one study, mostly repeats; a detail may differ. ± marks the error that the study gave. In brackets after ≈: the same amount, converted by molar mass.
Sequence of UniProt Q96GX5 (whole entry, looked up): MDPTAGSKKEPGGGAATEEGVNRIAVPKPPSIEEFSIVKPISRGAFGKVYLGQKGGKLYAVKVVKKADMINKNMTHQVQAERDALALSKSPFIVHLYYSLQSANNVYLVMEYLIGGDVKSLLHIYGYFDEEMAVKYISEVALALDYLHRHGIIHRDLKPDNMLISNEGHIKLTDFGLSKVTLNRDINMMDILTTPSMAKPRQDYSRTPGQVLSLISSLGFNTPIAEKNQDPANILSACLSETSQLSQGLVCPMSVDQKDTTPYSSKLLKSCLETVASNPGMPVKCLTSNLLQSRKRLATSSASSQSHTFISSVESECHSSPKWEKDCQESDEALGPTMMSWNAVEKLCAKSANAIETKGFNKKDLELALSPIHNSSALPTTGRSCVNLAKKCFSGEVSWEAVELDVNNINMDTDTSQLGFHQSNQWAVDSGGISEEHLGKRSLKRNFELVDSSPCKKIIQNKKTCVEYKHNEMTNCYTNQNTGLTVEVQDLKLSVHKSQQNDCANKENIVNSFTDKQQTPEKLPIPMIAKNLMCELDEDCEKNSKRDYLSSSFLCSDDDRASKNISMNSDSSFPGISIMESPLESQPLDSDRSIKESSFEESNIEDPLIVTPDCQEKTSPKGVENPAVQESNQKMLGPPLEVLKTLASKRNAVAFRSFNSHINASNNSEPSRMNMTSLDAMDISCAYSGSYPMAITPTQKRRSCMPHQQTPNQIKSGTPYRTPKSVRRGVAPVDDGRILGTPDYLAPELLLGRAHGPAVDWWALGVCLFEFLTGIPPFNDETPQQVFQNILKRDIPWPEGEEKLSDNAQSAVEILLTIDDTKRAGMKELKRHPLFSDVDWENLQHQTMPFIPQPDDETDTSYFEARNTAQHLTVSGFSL
Sequence of UniProt Q9UBN7 (whole entry, looked up): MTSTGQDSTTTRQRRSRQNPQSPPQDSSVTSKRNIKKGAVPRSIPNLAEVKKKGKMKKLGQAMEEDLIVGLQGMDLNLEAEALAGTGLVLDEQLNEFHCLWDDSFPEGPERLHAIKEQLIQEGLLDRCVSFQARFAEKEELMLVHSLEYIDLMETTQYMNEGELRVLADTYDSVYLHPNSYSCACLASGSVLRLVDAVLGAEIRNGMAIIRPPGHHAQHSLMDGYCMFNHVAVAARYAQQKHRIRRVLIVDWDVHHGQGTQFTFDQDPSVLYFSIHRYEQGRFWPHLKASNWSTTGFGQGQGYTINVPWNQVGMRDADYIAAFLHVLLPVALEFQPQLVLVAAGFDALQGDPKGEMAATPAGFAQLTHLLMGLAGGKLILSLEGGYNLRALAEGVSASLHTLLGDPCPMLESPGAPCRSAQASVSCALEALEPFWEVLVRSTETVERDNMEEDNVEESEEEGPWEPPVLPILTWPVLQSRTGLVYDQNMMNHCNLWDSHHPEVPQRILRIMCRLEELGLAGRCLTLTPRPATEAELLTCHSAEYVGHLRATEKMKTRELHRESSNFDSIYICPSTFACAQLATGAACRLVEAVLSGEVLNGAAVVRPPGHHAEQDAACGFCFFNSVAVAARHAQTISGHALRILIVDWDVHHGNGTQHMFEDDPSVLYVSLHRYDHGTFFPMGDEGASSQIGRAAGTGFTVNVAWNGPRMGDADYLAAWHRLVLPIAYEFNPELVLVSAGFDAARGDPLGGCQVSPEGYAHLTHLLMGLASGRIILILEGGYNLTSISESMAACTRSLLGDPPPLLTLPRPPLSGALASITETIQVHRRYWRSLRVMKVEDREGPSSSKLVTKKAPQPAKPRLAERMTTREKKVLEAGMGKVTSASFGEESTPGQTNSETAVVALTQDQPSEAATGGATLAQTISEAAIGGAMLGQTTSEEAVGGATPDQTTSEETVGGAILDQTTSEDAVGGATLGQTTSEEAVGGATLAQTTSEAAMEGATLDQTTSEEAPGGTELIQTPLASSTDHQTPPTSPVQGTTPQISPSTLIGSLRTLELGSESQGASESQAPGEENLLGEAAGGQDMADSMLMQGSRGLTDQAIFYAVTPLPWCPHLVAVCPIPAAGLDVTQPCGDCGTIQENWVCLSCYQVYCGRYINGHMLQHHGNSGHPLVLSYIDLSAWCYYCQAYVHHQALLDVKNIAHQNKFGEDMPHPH

SMILES	tested on	test	system	setting	scale	quantity	result
CCN1CCN(Cc2ccc(NC(=O)c3ccc(C)c(-c4ccc5nc(NC(=O)C6CC6)cn5n4)c3)cc2C(F)(F)F)CC1	MUTZ5 B-ALL cells	CellTiter-Glo	–	concentration not given, 3 d	–	cell proliferation	inhibited
C=C[C@@]1(C)CC(=O)[C@]2(O)[C@@]3(C)[C@@H](O)CCC(C)(C)[C@@H]3[C@H](O)[C@H](OC(C)=O)[C@@]2(C)O1	PBMC	MSD	–	0.001 µM, unit not given, with: PGE2	relative to: DMSO	cAMP level difference	-1.58
CCc1n(Cc2ccc3ccccc3n2)cc[n+]1Cc1ccc2ccccc2c1.[Br-]	NSCLC cell lines	–	–	lower end of range	–	TGI	≥ 0.671 µM
CCCCN1CCN(c2ccc3[nH]c(-c4ccc5[nH]c(-c6ccc(OCC)cc6)nc5c4)nc3c2)CC1	SF-539	SRB	–	10 µM, 48 h	–	growth percent	67.9%
CN(C)C(=S)SSC(=S)N(C)C	differentiated LUHMES MT1G-HiBiT neurons	measured: MT1G	–	24 h	–	AC50	0.023 µM
CCCCc1nc(Cl)c(CO)n1Cc1ccc(-c2ccccc2-c2nn[nH]n2)cc1	human PBMC	RNA-seq, measured: ELOVL7 mRNA	–	10 µg/mL, 24 h	relative to: untreated control	log2 fold change	2.04
CCn1cc(-c2cc(Cn3ccoc3=N)cc3c2CCN([C@@H](C)c2cc(OC)ccn2)C3=O)c(C(F)(F)F)n1	769-P	cell growth, inhibitor	–	120 h	–	EC50	0.12 µM
COc1cc(/C=C/C(=O)N2CCC=CC2=O)cc(OC)c1OC	MDA-MB-468	quantitative RT-PCR, measured: NQO1	–	30 µM, 8 h	relative to: untreated cells	mRNA level	149.2 ± 0.3%
Cc1ccc2c(c1)C(=O)[C@]1(O)CCN(c3ccc4nc(C)ccc4c3)C1=N2.Cl	murine cells	polysome RT-qPCR, measured: Myh9	–	concentration not given	–	polysomal mRNA increase	~50%
COc1ncccc1CN[C@@H]1C[C@H]1c1ccccc1 (racemic)	THP-1 wild type cells	MTS	–	72 h	–	GI50	> 50 µM
C[C@H]1CN(C2COC2)CCN1c1ccc(Nc2cc(-c3ccnc(N4CCn5c(cc6c5CC(C)(C)C6)C4=O)c3CO)cn(C)c2=O)nc1	TMD8 wild-type	calcium flux, FLIPR	–	1 h preincubation, with: anti-IgM	–	maximum inhibition	98.4%
c1coc(-c2n[nH]cc2-c2ccnc3ccccc23)c1	DUN1 (Candida albicans)	kinase binding, MIB/MS competition	Candida albicans lysate	10 µM	relative to: DMSO	log2 fold change	-0.08
Cc1cc(Nc2ccc(S(F)(F)(F)(F)F)cc2)n2nc(C(C)(F)F)nc2n1	Plasmodium vivax	–	human Plasmodium vivax malaria patients	oral, 600 mg	–	patients with any adverse event	77.7%
COC(=O)CCc1n(Cc2ccc3ccccc3c2)c2ccccc2[n+]1Cc1ccc2ccccc2c1	NSCLC cell lines	NCI60 one-dose screen	–	10 µM	–	mean growth percentage	9.86%
CCCCN1C[C@H](O)[C@@H](O)[C@@H](O)[C@H]1CO	sample B patient fibroblasts	acidic compartment staining, LysoTracker Red imaging	–	216 h	–	IC50	13.6 µM
COc1ccccc1NC(=S)N[C@@H](NC(=O)c1cccc(Br)c1)C(Cl)(Cl)Cl	MEF with TRE-FLAG-LMNB1	LMNB1 level, high-content screening	–	250 µM	–	maximum inhibition	6%
OC(CCN1CCCCC1)(c1ccccc1)C1CC2C=CC1C2 (stereo not shown)	–	resting-state EEG	healthy elderly humans	oral, 2 mg, eyes closed, LS mean	relative to: baseline	change in EEG Alpha2-power Fz-Cz	15.6%
c1ccc2nc(Cn3c[n+](Cc4ccc5ccccc5n4)c4ccccc43)ccc2c1	NSCLC cell lines	NCI60 one-dose screen	–	10 µM	–	mean growth percentage	44.2%
O=C(/C=C/C=C/C=C/C1CCCCC1)NC1=C[C@@](O)(/C=C/C=C/C=C/C(=O)NC2=C(O)CCC2=O)[C@@H]2O[C@@H]2C1=O	Lu-99	cell growth, CellTiter-Glo	–	78 h	–	GI50	8.95 µM
NC(=O)c1cnc2[nH]ccc2c1N[C@@H]1[C@@H]2CC3C[C@H]1C[C@@](O)(C3)C2	–	CD4+ effector T cells, flow cytometry	Caucasian humans, peripheral blood	200 mg single dose	relative to: baseline	percent change	0.05%

SMILES	tested on	test	system	setting	scale	quantity	result
O=c1[nH]nc(OCCCc2ccc(Cl)cc2)c(NCc2cccnc2)c1Br	HEK293T	RNA-seq, measured: HSPA1A mRNA	–	10 µM, 6 h	relative to: vehicle	log2 fold change	-0.572
C=CCn1c(=O)c2cnc(Nc3ccc(N4CCN(C)CC4)cc3)nc2n1-c1ccc2c(n1)[C@@](O)(CC)CC2	Kuramochi	flow cytometry	–	concentration not given	–	S phase cells	33.7%
Cc1ccc(CNC(=O)Cn2cc(CSc3nc4ccccc4[nH]3)nn2)cc1	HEK293	MTT	–	3.91 ppm	–	cytotoxicity	19.9%
Cc1cc(Nc2ncc(Cl)c(Nc3ccccc3S(=O)(=O)C(C)C)n2)c(OC(C)C)cc1C1CCNCC1	CLB-GE	phosphoproteomics LC-MS/MS, measured: MELK phosphorylation	–	200 nM, 60 min	relative to: untreated	log2 fold change	-1.66
COc1ccc(-c2coc3cc(O)ccc3c2=O)cc1	Caco-2 monolayers	–	–	100 µg/mL, 15 min	relative to: 0 min value	TEER	≤ 120%
O=c1cc(-c2ccc(O)c(O)c2)oc2cc(O)cc(O)c12	Caco-2 monolayers	Western blot, measured: occludin, claudin-1, ZO-1	–	concentration not given	–	protein level	decreased
CC(C)C[C@H](NC(=O)C[C@H](O)[C@H](CC(C)C)NC(=O)[C@H](Cc1c[nH]cn1)NC(=O)CNC(=O)[C@@H](NC(=O)[C@H](C)NC(=O)[C@H](Cc1c[nH]c2ccccc12)NC(=O)[C@H](CCC(N)=O)NC(=O)[C@@H](Cc1ccccc1)NC(=O)COCCOCCNC(=O)CCC(C(=O)O)N1CCN(CC(=O)O)CCN(CC(=O)O)CCN(CC(=O)O)CC1)C(C)C)C(N)=O (stereo partly shown) [lutetium-177 labelled]	–	–	BALB/c nu/nu mice, pancreas	intravenous, 500 pmol, 1 h, with: PA 300 µg	–	tissue uptake	3.2 ± 0.7 %ID/g
CC/C(=N\NC(=O)C(C)Nc1ccccc1)c1ccc(O)c(C)c1O (stereo not shown)	SK-OV-3	Western blot	–	10 µM, 3 h, 3D gellan gum culture, unit not given	relative to: DMSO	TAZ band intensity	0.17 ± 0.01
O=C(O)CC1Oc2ccccc2NC1=O (stereo not shown)	Protein deacetylase HDAC6, ZnF-UBD domain (HDAC6, Homo sapiens, UniProt Q9UBN7)	–	–	–	–	Kd	> 1000 µM
Nc1cccc2c1CN(C1CCC(=O)NC1=O)C2=O (stereo not shown)	bone marrow CD138+ myeloma cells	XTT	–	1 µM, phenol red-free RPMI	–	viability	85%
c1ccc2cc(Cn3cc[n+](Cc4ccc5ccccc5c4)c3)ccc2c1	NSCLC cell lines	–	–	10 µM, average over cell lines	relative to: untreated	growth	38.1%
CCc1c(-c2ccccc2)c(-c2ccccc2)nn1-c1ccccc1-c1cccc(OCC(=O)O)c1	mouse bone marrow macrophages	osteoclast formation	–	with: M-CSF + sRANKL	–	log IC50	-0.0494
CN[C@H](CC(C)C)C(=O)N[C@H]1C(=O)N[C@@H](CC(N)=O)C(=O)N[C@H]2C(=O)N[C@H]3C(=O)N[C@H](C(=O)N[C@H](C(=O)O)c4cc(O)cc(O)c4-c4cc3ccc4O)[C@H](O)c3ccc(c(Cl)c3)Oc3cc2cc(c3O[C@@H]2O[C@H](CO)[C@@H](O)[C@H](O)[C@H]2O[C@H]2C[C@](C)(N)[C@H](O)[C@H](C)O2)Oc2ccc(cc2Cl)[C@H]1O	Staphylococcus epidermidis	–	methicillin-resistant, 10 isolates	serum 0%	–	MIC50	2 µg/mL (≈ 1.38 µM)
O=C(Nc1c(Cl)cncc1Cl)c1ccc(OC(F)F)c(OCC2CC2)c1	PBMC	MSD	–	0.01 µM, unit not given, with: PGE2	relative to: DMSO	cAMP level difference	-2.61
Oc1ccccc1-c1n[nH]cc1-c1ccnc2ccccc12	RIO2 (Candida albicans)	kinase binding, MIB/MS competition	Candida albicans lysate	1 µM	relative to: DMSO	log2 fold change	-0.02
Cc1cccc(-c2[nH]c(CNc3ccccc3F)nc2-c2ccc3ncnn3c2)n1	bone marrow CD138+ myeloma cells	XTT	–	1.6 µM, phenol red-free RPMI	–	viability	9%
Nc1ncnc2c1ncn2[C@@H]1O[C@H](CO)[C@@H](O)[C@H]1O	activated human T cells	measured: dihydroorotate	–	10 µM	relative to: DMSO	log2 fold change	5.7 and 5.6
C=C1CN(S(=O)(=O)c2ccc(C)cc2)CCCN(Cc2ccccc2)CCCN(S(=O)(=O)c2ccc(C)cc2)C1	HEK293 with FLuc reporter	FLAG-ubiquitin immunoprecipitation	–	concentration not given, 6 h, unit not given	relative to: mock	polyubiquitinated FLuc level	5.04
CCn1cc(-c2cc(Cn3ccnc3)cc3c2CCN([C@H](c2cc(OC)ccn2)C2CC2)C3=O)c(C(F)(F)F)n1	RERF-LC-AI	cell growth, inhibitor	–	120 h	–	EC50	> 30 µM
CC[C@@H]1[C@H](F)C(=O)N[C@@H]1COc1nccc2cc(C(N)=O)c(OC)cc12	MASTL (Homo sapiens, UniProt Q96GX5)	ATP-site probe binding, ActivX profiling	THP-1 cell lysate	0.2 mM, Lys1 site	–	inhibition	12.7%

SMILES	tested on	test	system	setting	scale	quantity	result
C=CC(=O)N1CCC[C@@H](c2ccc(C(N)=O)c3[nH]ccc23)C1	TMD8 wild-type	calcium flux, FLIPR	–	4 h preincubation, with: anti-IgM	–	maximum inhibition	32.7%
[Cl-].[Cl-].[Os+2].c1cnc2c(c1)ccc1cccnc12.c1cnc2c(c1)ccc1cccnc12.c1cnc2c(c1)ccc1cccnc12	SK-MEL-28	cell viability, resazurin	–	dark, 1% O2 hypoxia	relative to: dark EC50 over green EC50	phototherapeutic index	1
C[C@]12CC[C@@H]3c4ccc(O)cc4CC[C@H]3[C@@H]1CC[C@@H]2O	MCF7 3xERE-luc, steroid-deprived	ERE luciferase reporter, agonist	–	–	relative to: vehicle	Emax	97%
CCN(CC)S(=O)(=O)Nc1cccc(-c2ccc3c(NC(=O)C4CC4)n[nH]c3c2)c1	HEK293T	flow cytometry, measured: surface LRP6	–	concentration not given, 8 h, with: WNT3A	–	LRP6-positive cells	63.2%
Cn1cc(-n2cnc3c(NCc4nc5cc(Cl)c(Cl)cc5[nH]4)nc(N4CCOCC4)nc32)cn1	MDA-MB-231	qRT-PCR, measured: SMARCC2	–	50 nM, 6 h, unit not given	relative to: untreated	mRNA level	0.743
CC/C(=N\NC(=O)NCc1cccc(O)c1)c1ccc(O)c(C)c1O	SK-OV-3	Western blot, measured: YAP	–	1 µM, 1 h, 2D culture, unit not given	relative to: β-actin	protein level	1.08 ± 0.3
COc1cnc2cccc(N3CCc4c(cc(Cn5ccnc5C)cc4-c4cn(C)nc4C(F)(F)F)C3=O)c2c1	SW1271	cell growth, inhibitor	–	120 h	–	EC50	> 30 µM
CC(C)NCC(O)c1ccc(O)c(O)c1 (stereo not shown)	mouse ventricular cardiomyocytes	–	–	dose not given, 0.039 s	–	sarcomere length	1.8 µm
C=CC1=C(C)c2cc3[n-]c(cc4nc(cc5[n-]c(cc1n2)c(C)c5C=C)C(C)=C4CCC(=O)O)c(CCC(=O)O)c3C.[Zn+2]	SH-SY5Y	RNA-seq, measured: TGFB1I1 mRNA	–	5 µM, 5 h	relative to: untreated cells	fold change	1.6
N#Cc1ccc(Oc2ccc3c(c2)COB3O)cc1	PBMC	MSD	–	10 µM, unit not given, with: PGE2	relative to: DMSO	cAMP level difference	-2.07
COc1cc(OC)c2c(=O)[nH]c(-c3cc(C)c(OCCO)c(C)c3)nc2c1	murine AML cells	BRD4 chromatin occupancy, ChIP-seq, measured: Ift57 locus	–	concentration not given	relative to: DMSO	log2 fold change	0.13
Cn1cc(-c2ccc(-c3cncc(Cl)c3N3CCC4(CCNC4=O)CC3)cc2)cn1	COLO 205	gene expression, microarray, measured: PLA2G2A mRNA	–	concentration not given, 6 h	relative to: untreated cells	log2 fold change	-6.8
O=C(COP(=O)(O)O)[C@@H](O)[C@H](O)[C@H](O)COP(=O)(O)O	Large ribosomal subunit protein uL13 (Homo sapiens, UniProt P40429)	thermal proteome profiling, measured: RPL13A	HepG2 cell lysate	concentration not given, 57 over 37 °C, mean	relative to: compound over control	thermal stability ratio	0.705
COc1ccc(-n2nc(C(C)=O)s/c2=N\N=C(/C)c2ccc(NC(=O)c3ccccc3)cc2)cc1	MCF7	–	–	0.156 µM	–	viability	36%
C=CC(=O)Nc1cc2c(Nc3ccc(OCc4ccccn4)c(Cl)c3)ncnc2cc1OCCN1CCOCC1	NCI-H2073 EGFR ASV knock-in	cell proliferation, CellTiter-Glo	–	–	relative to: knock-in over parental NCI-H2073	selectivity ratio	0.8
Cn1cc(Nc2nccc(-c3ccc4c(c3)CN(C3COC3)CC[C@H]4NC(=O)c3cn(C(C)(C)C)nn3)n2)cn1	mouse splenic B cells	measured: GM-CSF signalling	–	30 mg/kg, IgD-activated in vivo	relative to: vehicle, direction not given	pathway activation z-score	1.39
CC(=O)c1c(O)c(C)c(O)c2c1OC1=CC(=O)C(C(C)=O)C(=O)C12C (single isomer, unassigned; (+))	hepatocytes, iPSC-derived, line W3	cell viability	–	24 h	–	IC50	54 µM
c1cnc2c(c1)ccc1cccnc12	HEK293T	–	–	25 µg/mL	relative to: albendazole	IL-10 mRNA level	decreased

Some of these lines once more:
SMILES	tested on	test	system	setting	scale	quantity	result
Nc1ncnc2c1ncn2[C@@H]1O[C@H](CO)[C@@H](O)[C@H]1O	activated human T cells	measured: dihydroorotate	–	10 µM	relative to: DMSO	log2 fold change	5.7 and 5.6
C=C1CN(S(=O)(=O)c2ccc(C)cc2)CCCN(Cc2ccccc2)CCCN(S(=O)(=O)c2ccc(C)cc2)C1	HEK293 with FLuc reporter	FLAG-ubiquitin immunoprecipitation	–	concentration not given, 6 h, unit not given	relative to: mock	polyubiquitinated FLuc level	5.04
CCn1cc(-c2cc(Cn3ccnc3)cc3c2CCN([C@H](c2cc(OC)ccn2)C2CC2)C3=O)c(C(F)(F)F)n1	RERF-LC-AI	cell growth, inhibitor	–	120 h	–	EC50	> 30 µM
